Assay results of several laboratories.
Each line is one published result; not all experiments were run side by side. Values joined by “and” are separate records of one study, mostly repeats; a detail may differ.
Target: MAP/microtubule affinity-regulating kinase 3 (MARK3, Homo sapiens, UniProt P27448)
One construct used (P27448 1-753): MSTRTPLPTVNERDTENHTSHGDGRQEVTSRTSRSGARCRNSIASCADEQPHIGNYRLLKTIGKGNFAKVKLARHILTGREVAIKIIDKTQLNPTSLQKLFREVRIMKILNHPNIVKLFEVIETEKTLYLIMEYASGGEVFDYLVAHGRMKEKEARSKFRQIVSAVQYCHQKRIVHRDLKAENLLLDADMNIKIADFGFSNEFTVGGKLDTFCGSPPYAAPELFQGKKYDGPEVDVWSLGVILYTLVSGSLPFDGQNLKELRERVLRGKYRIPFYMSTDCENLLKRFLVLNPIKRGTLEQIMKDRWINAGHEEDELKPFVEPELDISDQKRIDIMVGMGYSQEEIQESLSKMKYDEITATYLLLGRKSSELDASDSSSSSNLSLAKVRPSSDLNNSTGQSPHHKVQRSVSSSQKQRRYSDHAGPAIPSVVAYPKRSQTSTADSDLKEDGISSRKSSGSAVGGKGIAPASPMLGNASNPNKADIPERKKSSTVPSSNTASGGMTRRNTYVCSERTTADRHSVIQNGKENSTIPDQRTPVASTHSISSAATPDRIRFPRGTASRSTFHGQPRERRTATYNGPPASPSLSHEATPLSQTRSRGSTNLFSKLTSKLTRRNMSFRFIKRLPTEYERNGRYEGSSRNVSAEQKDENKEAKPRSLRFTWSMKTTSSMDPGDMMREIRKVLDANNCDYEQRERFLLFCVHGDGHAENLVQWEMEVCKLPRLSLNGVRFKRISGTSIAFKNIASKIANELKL

Cc1cccc(-c2ccc3nc(NC(=O)C4CCOCC4)nn3c2)c1  remaining activity (enzyme activity, Dundee kinase panel; 10 µM): 88%
C[C@H]1CN(C(=O)c2cn(-c3ccnc(N)n3)c3cc(C#CC4(O)CCCCC4)ccc23)CCN1  inhibition (enzyme activity, inhibitor, FRET; 1 µM): 75%
C=C1CCCCCCCCCC(CO)C1=O (centres unmarked)  remaining binding (cell-free assay, competition with immobilised ligand; 10 µM): 100%
CN1CCN(Cc2ccc(NC(=O)c3cccc(C#Cc4cnc(N)c5ncccc45)c3)cc2C(F)(F)F)CC1  remaining binding (cell-free assay, competition with immobilised ligand; 50 nM): 90%
NC(=O)[C@@H](O)C[C@H]1CCc2sc3ncnc(O[C@H]4CC[C@H](N5CCOCC5)CC4)c3c21  inhibition (enzyme activity, inhibitor; 10 µM): 7%
C=CC(=O)N1CCCC(n2c(=O)c3ncccc3n(Cc3ccc(Oc4ccccc4)cc3)c2=O)C1 (centres unmarked)  remaining binding (cell-free assay, competition with immobilised ligand; 1 µM): 100%
CCN1CCN(Cc2ccc(C(=O)Nc3ccc(C)c(NCc4cnc5[nH]ccc5c4OC)c3)cc2C(F)(F)F)CC1  remaining binding (binding, competition with immobilised ligand; 1 µM): 100%
COc1cc(Nc2nccc(-c3cnn4nc(OC)ccc34)n2)cc(C(F)(F)F)c1  remaining binding (binding, competition with immobilised ligand; 1 µM): 86%
COCC12C(=O)NC3C4(C(OC)CC1O)C1CC5(O)C(OC)C(O)C(OC(C)=O)(C1C5OC(=O)c1ccccc1)C3(O)C(OC)C24 (centres unmarked)  remaining activity (kinase activity, inhibitor, ProQinase kinase profiling; 25 µM; relative to: control): 91% and 84%
Nc1ncc(-c2cc(-c3cnn(CC(F)(F)F)c3)ncc2F)nc1C(=O)NC1CNCC(F)C1 (centres unmarked)  remaining activity (enzyme activity; 1 µM; relative to: DMSO control): 99%
Cc1cnc2nc1Nc1cccc(c1)COC/C=C/COCc1cc(ccc1OCCN1CCOCC1)N2  remaining binding (binding; 0.1 µM): 81%
CNC1C[S+]2CC[S+]3CC[S+](C1)[Ru-4]321([N]=C=S)[n]2c3ccc(OC)cc3c3c4c(c5cc(F)c[n+]1c5c32)C(=O)NC4=O (centres unmarked)  remaining binding (KinomeScan; 0.1 µM; relative to: untreated): 61%
Cc1cccc(-c2ccc3nc(NC(=O)C4CCCCC4)nn3c2)c1  remaining activity (enzyme activity, Dundee kinase panel; 10 µM): 91%
O=C(Cc1ccc(OCc2ccccc2)cc1)NC1(C(=O)O)CCN(C(=O)c2ccc(-c3cccc(Cl)c3)cc2)CC1  activity vs control (enzyme activity, inhibitor; 10 µM): 134%
Cc1cccc(O[C@H]2CCC[C@@H](C(C)CNCc3ccncc3)C2)c1 (relative stereo)  inhibition (enzyme activity, inhibitor; 10 µM): 0%
CNC(=O)C[C@H](Cc1ccc(C#N)cc1)NC(=O)c1cc(-c2ccc(CN[C@H](C)c3ccc(C)cc3)o2)ccc1Cl  activity vs control (enzyme activity, inhibitor; 1 µM): 104%
CNS(=O)(=O)Nc1nccc(Cc2c(C)c3ccc(Oc4ncccc4F)cc3oc2=O)c1F  remaining binding (binding, competition with immobilised ligand; 10 µM): 89%
CN1CCN(Cc2ccc(-c3ccc(CO[C@H]4CCC[C@@H]4NC(=O)c4cc(-c5cnn(C)c5)cnc4N)cc3)cc2)CC1  inhibition (enzyme activity, inhibitor; 0.1 µM): 4%
CNC(=O)C1CCN(c2cc(C)c(F)cc2NC(=O)c2ccc(-c3cc(O)ccc3C)c(C)c2)CC1  remaining binding (binding, competition with immobilised ligand; 1 µM): 79%
C=CC(=O)Nc1cccc(-c2cnc3[nH]cc(C(=O)NC(C)(C)C)c3n2)c1  inhibition (enzyme activity, inhibitor; 0.1 µM): 48%
